Measurements from different studies.
A part holds a random share of what one study measured. Changes are numbered by the printed parent chain.

Study 1 — target: CCNE1, cyclin fold, Cln2 fusion (human); method: yeast growth competition, sequencing; sample: yeast; setting: strong parent motif; reference: not given; reading: higher = stronger binding
Starting sequence: RBL2 docking peptide (human); STTRRRLFVENDS
Variant | normalised enrichment score
D12W | 3.91
R6V | 4.31
S1H | 5.25
S1V | 5.55
E10P | 3.09
R6L | 2.47
T3N | 0.127
N11C | 6.16
R6E | 0.547
N11G | 5.7
S13I | 5.66
T3G | 4.36
S13D | 6.67
L7G | -0.825

Study 2 — method: RNA Bind-n-Seq; molecule type: RNA; sample: in vitro; concentration: 365 nM; reference: no-protein control; reading: higher = stronger binding
Target: RNA binding protein fox-1 homolog 2, RRM domain, GST-SBP tag (RBFOX2, Homo sapiens, UniProt O43251-10, residues 100-194)
Setting: natural RNA segment, single round, ends assumed
Target sequence (chain): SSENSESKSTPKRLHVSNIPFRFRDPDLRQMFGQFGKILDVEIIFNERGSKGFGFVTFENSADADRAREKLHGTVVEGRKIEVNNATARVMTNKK
Oligonucleotide | RBNS enrichment (R)
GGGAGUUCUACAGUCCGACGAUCAAUGUUUGAUGCCUCUCUUCUGCAAAGCGUAUCAUCUCAUUGACUGUGAAUCUGUAUAUUAUUCUGAUGGAUACAGAUAAUGAUCUUUUCUCUUGUGAGGUAUCUUCAUUUGGAAUUCUCGGGUGCCAA | 0.38
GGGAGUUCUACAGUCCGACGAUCAGUGAAGUCCAGAUAGUUUUGCAGAUUGUUUUGCUACUUUUUCAUAUGGUAUAUGUUUCUGAUUUUUAAUAUUUCUUUUGAGAAAUUCUGAGUUCUGAUGUAGGAGCUUUUGGAAUUCUCGGGUGCCAA | 1.07
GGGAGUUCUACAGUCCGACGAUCGCCCUUGAUAAAUAUCAACUUUAUUGAAUUGUACCUUUUAUUAAAAAGGAAAUACUUCAAAACCUUGUUCAUUACCUAGACCAGUUAUUAUCUGUCUGGACAUAGUUGUGUGGAAUUCUCGGGUGCCAA | 0.331
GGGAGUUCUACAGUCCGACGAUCCUCUGUAGGACCAAGCACUCGGGGGAGAGGCCUAAGCCAUCCUCUGUUCCAGACUGGACAUCCACUGUCUUUCCUGCUUUCGCGUCAGAUUUACAGCUUAUGCUAGGCCCUGGAAUUCUCGGGUGCCAA | 0.208
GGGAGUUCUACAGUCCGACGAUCAGCAGUAUAGGACUGUUGAACAGCCUGGUGUGUCAGGACCCCCAAAUGUCACUUCUGCCUAAAGCAUGUAUGUCACCUAUUUUUUUCUUCAAUAAAGAAAUUUAACAGCCUGGAAUUCUCGGGUGCCAA | 5.42
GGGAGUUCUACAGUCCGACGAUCUCACUGUAACCUGAUUCAUCCUGGGAUGUAAACCAUUCGAAGUCAGCUAAUUGGACUUUUAUGGCUCUAUCUUUUCCUUCAGUGAAGAACCCUAUUUAAAACUGGGUCAUUGGAAUUCUCGGGUGCCAA | 0.291
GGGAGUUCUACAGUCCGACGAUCCCGUCAUGUGGAUGUUAUUGUCGCGCGCGUCUAUAAUUACAAGGUUUUAUUCCUAUUUAAUGUUAUUGACUAUAGCAGAUUUUGGAAAUCAGUGUUUUCCAUGUGACCCUUGGAAUUCUCGGGUGCCAA | 0.347
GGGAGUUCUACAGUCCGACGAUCGCCAAGGGCUUGCAUGCAUUAUCUCCUUUAAUCCACAAGCAGCUCUGGCGAGGUGGUAUUAGCCCAUCUUACAGAUGGGAAAACUGAAGUUCUGUGCUAGAGAUUGAGAAUGGAAUUCUCGGGUGCCAA | 18.1

Study 3 — method: Sort-seq; refers to: YFP reporter; sample: E. coli; setting: PhoQ-PhoP variant library; with: 10 µM Mg2+; reference: high Mg2+ state; reading: higher = stronger signaling
Molecule: PhoQ, residues 284 288 289 292 302 303 SSYNSA
target | fold induction
PhoP, residues 12 14 15 18 19 SFCSL (Escherichia coli, UniProt P23836) | 30.4
PhoP, residues 12 14 15 18 19 AYFRS (Escherichia coli, UniProt P23836) | 19.8
PhoP, residues 12 14 15 18 19 HHYTI (Escherichia coli, UniProt P23836) | 1.26

Study 4 — method: universal PBM; molecule type: double-stranded DNA, one strand shown; sample: in vitro; concentration: 600 nM; reading: higher = stronger binding
Target: Sal-like protein 4, full length isoform A (SALL4, Homo sapiens, UniProt Q9UJQ4, residues 1-1053)
UniProt Q9UJQ4, sequence (whole entry, looked up): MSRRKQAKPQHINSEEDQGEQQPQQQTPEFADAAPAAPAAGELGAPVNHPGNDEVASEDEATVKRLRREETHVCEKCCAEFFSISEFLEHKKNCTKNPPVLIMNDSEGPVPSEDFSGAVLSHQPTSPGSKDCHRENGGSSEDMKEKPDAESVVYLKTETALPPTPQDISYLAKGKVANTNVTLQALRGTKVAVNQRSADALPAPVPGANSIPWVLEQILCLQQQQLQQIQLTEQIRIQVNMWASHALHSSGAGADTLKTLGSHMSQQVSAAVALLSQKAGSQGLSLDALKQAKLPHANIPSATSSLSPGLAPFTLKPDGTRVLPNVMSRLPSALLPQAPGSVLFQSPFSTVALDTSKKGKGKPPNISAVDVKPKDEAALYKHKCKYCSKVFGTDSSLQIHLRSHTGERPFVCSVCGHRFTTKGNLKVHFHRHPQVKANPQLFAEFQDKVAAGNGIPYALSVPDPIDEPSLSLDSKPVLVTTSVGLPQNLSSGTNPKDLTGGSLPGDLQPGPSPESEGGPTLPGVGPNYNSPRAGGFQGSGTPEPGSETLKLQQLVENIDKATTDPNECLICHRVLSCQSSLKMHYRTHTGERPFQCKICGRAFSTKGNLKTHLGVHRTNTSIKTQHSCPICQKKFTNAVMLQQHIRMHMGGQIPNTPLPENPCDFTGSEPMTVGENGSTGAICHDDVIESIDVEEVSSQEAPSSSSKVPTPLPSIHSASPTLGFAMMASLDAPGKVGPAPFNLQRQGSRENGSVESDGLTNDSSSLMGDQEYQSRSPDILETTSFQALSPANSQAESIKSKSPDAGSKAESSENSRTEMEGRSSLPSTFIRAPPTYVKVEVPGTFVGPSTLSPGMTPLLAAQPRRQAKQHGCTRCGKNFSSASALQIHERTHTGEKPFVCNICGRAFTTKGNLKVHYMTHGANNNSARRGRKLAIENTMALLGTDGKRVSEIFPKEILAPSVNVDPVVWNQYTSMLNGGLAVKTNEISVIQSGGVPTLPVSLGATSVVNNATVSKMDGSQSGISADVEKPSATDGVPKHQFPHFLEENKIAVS
Setting: 8-mer, flanks averaged, mean of replicates
Oligonucleotide | E-score
TCATCAAA | 0.149
ACTCTGTA | 0.0685
GGCGTTGA | -0.171
AAAGTGGT | 0.0179
GTGCATTA | 0.215
CCACCAAG | -0.293
AAATACCG | 0.0905
CACAGGGC | -0.237
GACGCTCC | -0.176
CAAATTGG | 0.215
CATAGTCA | 0.168
AATGCTAG | 0.0342
ACTCTCTC | -0.197
AAGGCACT | -0.153
ATCTCTCA | 0.0286
CGGATCAA | 0.0481
GGAACGGA | -0.0595
AACACGTG | 0.0532
AACCTCGG | -0.213

For quick reference, copied from above (study 3):
target | fold induction
PhoP, residues 12 14 15 18 19 SFCSL (Escherichia coli, UniProt P23836) | 30.4
PhoP, residues 12 14 15 18 19 AYFRS (Escherichia coli, UniProt P23836) | 19.8
PhoP, residues 12 14 15 18 19 HHYTI (Escherichia coli, UniProt P23836) | 1.26
